Measurements of several laboratories.
Numbered parts are unrelated; each lists some results of a single study. “And” joins repeats or separate records; there may be more than shown.

Series 1
Target: Receptor tyrosine-protein kinase erbB-4 (ERBB4, Homo sapiens, UniProt Q15303)
UniProt Q15303, sequence (whole entry, looked up): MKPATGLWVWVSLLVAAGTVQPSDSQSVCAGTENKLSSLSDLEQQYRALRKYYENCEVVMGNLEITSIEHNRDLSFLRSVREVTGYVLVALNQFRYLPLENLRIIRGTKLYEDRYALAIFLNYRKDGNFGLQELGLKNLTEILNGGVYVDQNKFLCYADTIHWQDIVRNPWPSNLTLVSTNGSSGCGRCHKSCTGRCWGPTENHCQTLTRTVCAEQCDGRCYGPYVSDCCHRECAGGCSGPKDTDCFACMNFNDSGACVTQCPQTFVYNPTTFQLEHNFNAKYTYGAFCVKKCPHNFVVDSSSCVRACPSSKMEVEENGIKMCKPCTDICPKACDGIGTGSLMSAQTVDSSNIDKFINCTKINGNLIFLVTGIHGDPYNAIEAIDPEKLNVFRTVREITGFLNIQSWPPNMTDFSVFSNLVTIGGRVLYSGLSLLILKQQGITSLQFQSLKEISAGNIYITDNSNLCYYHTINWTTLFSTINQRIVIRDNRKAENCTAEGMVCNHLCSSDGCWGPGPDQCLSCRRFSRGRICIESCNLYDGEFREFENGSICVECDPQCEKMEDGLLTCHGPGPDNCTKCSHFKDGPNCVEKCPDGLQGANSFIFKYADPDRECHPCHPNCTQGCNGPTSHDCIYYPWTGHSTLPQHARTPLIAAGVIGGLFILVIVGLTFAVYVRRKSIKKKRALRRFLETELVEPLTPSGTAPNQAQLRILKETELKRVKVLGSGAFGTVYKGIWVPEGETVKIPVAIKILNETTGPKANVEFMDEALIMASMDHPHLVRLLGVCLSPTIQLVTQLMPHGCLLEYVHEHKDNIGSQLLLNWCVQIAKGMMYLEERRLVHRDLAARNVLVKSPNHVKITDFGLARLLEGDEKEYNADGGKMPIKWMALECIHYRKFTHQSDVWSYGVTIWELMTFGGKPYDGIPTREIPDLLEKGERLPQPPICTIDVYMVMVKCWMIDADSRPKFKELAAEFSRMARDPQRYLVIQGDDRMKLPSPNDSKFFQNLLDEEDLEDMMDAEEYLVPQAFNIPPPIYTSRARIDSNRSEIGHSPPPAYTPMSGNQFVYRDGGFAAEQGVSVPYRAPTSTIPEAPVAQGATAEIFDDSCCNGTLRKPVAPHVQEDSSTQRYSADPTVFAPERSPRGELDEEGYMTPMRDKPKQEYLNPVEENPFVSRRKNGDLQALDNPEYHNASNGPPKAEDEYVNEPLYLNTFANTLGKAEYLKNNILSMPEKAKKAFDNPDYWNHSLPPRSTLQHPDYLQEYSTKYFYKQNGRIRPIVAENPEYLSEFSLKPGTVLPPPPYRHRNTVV
Read-out: enzyme activity
Action: inhibitor
Concentration: 0.5 µM
Baseline: control
Quantity: remaining activity
Structure (SMILES) = COc1cccc(-c2cc(=O)c3ccccc3o2)c1N; result = 94.7%
Structure (SMILES) = Cc1ccc(S(=O)(=O)/C=C/C#N)cc1; result = 99.7%
Structure (SMILES) = O=Nc1c(-c2c(O)[nH]c3cc(Br)ccc23)[nH]c2ccccc12; result = 96.8%
Structure (SMILES) = COc1ccc2c(c1)c(C1=C(c3c[nH]c4ccccc34)C(=O)NC1=O)cn2CCCN(C)C; result = 93.4%
Structure (SMILES) = O=C1Nc2ccc(Br)cc2/C1=C/c1cc2c([nH]1)CCCC2; result = 84.6%
Structure (SMILES) = O=C1NC(=O)c2c1c1c3ccccc3[nH]c1n1cncc21; result = 102%
Structure (SMILES) = Oc1cccc(-c2nc(N3CCOCC3)c3oc4ncccc4c3n2)c1; result = 97.6%
Structure (SMILES) = O=C1NC(=O)c2c1c1c3ccccc3[nH]c1c1[nH]c3cc(Br)ccc3c21; result = 101%
Structure (SMILES) = CCCCc1c(-c2ccc(OC)cc2)[nH]c2nccnc12; result = 109%
Structure (SMILES) = O=c1cc(N2CCOCC2)oc2c(-c3ccccc3)cccc12; result = 102%

Series 2
Target: 5-hydroxytryptamine receptor 1E (HTR1E, Homo sapiens, UniProt P28566)
UniProt P28566, sequence (whole entry, looked up): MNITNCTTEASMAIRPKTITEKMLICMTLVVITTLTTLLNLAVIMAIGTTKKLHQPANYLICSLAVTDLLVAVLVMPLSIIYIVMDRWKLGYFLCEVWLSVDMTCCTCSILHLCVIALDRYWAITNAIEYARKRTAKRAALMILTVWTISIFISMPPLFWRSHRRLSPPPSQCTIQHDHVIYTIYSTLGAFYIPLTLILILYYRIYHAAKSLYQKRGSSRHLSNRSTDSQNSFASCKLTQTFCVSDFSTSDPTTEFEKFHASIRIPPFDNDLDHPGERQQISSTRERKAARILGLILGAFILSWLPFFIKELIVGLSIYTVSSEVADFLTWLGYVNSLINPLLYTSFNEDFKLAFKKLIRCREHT
Read-out: ligand displacement
Method: radioligand
Concentration: 10 µM
Quantity: inhibition
SMILES = COc1ccc2c(O[C@@H]3C[C@H]4C(=O)N[C@]5(C(=O)O)CC5/C=C\CCCCC[C@H](NC(=O)OC5CCCC5)C(=O)N4C3)cc(-c3csc(NC(=O)C(C)C)n3)nc2c1C (some centres unmarked); result = 14.9%
SMILES = Nc1cnc(N2CCc3cc(S(=O)(=O)Nc4c(F)cc(Cl)cc4F)cc(N4CCCC4=O)c32)nc1; result = -4.55%
SMILES = C[C@H](c1cccc(C#N)c1)n1cc(Cl)cc(C(N)=O)c1=N; result = 34.1%
SMILES = CCC(=O)N[C@@H]1CC[C@H](C(=O)N(C)c2ccc(-c3nc4ccccc4o3)cc2)C1; result = -5.68%
SMILES = Cc1cc(Nc2nccc(C)n2)cc(-c2cnc([C@@]3(O)CC[C@H](C(=O)O)C(C)(C)C3)s2)c1; result = 11.4%
SMILES = CN1CCN(c2cnc3c(C4CCN(C(=O)c5ccc(OC(F)(F)F)cc5N)CC4)ncnc3c2)CC1; result = 14.2%
SMILES = CNC(=O)Nc1ccc2c(c1)CC[C@]21OC(=O)N(CC(=O)N(Cc2ccc(F)cc2)[C@@H](C)C(F)(F)F)C1=O; result = 4.23%
SMILES = CC(C)(C)OC(=O)N1CCCC1CNC1CCC(c2cc(F)ccc2F)(S(=O)(=O)c2ccc(Cl)cc2)CC1 (centres unmarked); result = -12.9%
SMILES = CCOc1cc(N2C3COCC2CN(C(=O)[C@H]2C[C@H](O)CN2c2ccc(Cl)cc2)C3)ccc1Cl; result = -16%
SMILES = Cc1cc(-n2nc(Cc3cc(F)cc(C(F)(F)F)c3)nc2C)ccc1C(N)=O; result = 10.5%
SMILES = CSc1cccnc1N1CCN(Cc2nc3ccccc3[nH]2)CC1; result = 20.9%
SMILES = C[C@@]1(Cc2ccc(C#N)cc2)C(=O)N(c2cc(Cl)cc(Cl)c2)c2ncc(C(=O)NC3(c4nc(C5CCC5)no4)CC3)n21; result = 31.5%
SMILES = CCC(=NO)C(C)=Cc1ccc(F)c(C)c1; result = 4.47%
SMILES = COc1cc(-c2cn(C3CCc4ccccc4N(CC(F)(F)F)C3=O)nn2)ccc1-n1ccc(C)n1 (centres unmarked); result = -28.5%
SMILES = Cn1cncc1[C@](O)(COc1ccc(C#N)cc1-c1ccc(OC(F)(F)F)cc1)c1ccc(C#N)cc1; result = 1.11%
SMILES = C[C@@H](NC(=O)Nc1cc2[nH]ncc2c(CO)n1)c1ccccc1; result = -10.7%
SMILES = COCCOc1nc(-c2ccc(Cl)nc2)nc2c1CN(C(=O)c1ncn3ccccc13)CC2; result = 6.95%

Series 3
Compound: COc1cc(C(=O)N2CCC(N3CCN(C)CC3)CC2)ccc1Nc1ncc2c(n1)N(C)c1ccccc1C(=O)N2C
Quantity: inhibition
tested on = PRKX and PRKY human; assay = KiNativ profiling; test system = human PBMC; conditions = 0.1 µM, LYS1 site, together with: ADP acyl phosphate probe; result = -11.6%
tested on = human PBMC; assay = probe labeling, inhibitor, KiNativ profiling, refers to: DVkPSNILVNSR; test system = cell lysate; conditions = concentration not given, LYS2 site, together with: ADP acyl-phosphate probe; result = -24.1%
tested on = RSK1 domain 1 (mouse); assay = probe labelling, inhibitor, KiNativ ActivX ADP probe; test system = mouse brain lysate; conditions = 0.1 µM, Lys1 site peptide; result = 3.6% and 3.1%
tested on = RSKL1 kinase domain 1 (human); assay = probe labelling, KiNativ, refers to: kinase domain site peptide; test system = PBMC lysate (human); conditions = 0.1 µM, together with: ADP acyl-phosphate probe; result = 2.5%
tested on = MAP2K1 and MAP2K2 (mouse); assay = probe labelling, KiNativ, refers to: DVkPSNILVNSR peptide, LYS2 site; test system = brain tissue lysate (mouse); conditions = 0.1 µM, together with: ADP acyl-phosphate probe; result = -5.7%
tested on = mouse ROCK1; assay = probe labelling, KiNativ ATP probe; test system = mouse brain lysate; conditions = 0.1 µM; result = -4.1%
tested on = ZC1/HGK (mouse); assay = probe labelling, KiNativ, refers to: LYS1 site peptide; test system = brain tissue lysate (mouse); conditions = 0.1 µM, together with: ATP acyl-phosphate probe; result = 5.6%
tested on = ACK (mouse); assay = probe labelling, KiNativ, refers to: Lys1 site peptide; test system = brain tissue lysate (mouse); conditions = 0.1 µM, together with: ADP acyl-phosphate probe; result = 3.6%
tested on = mouse BRSK2 and CHK1; assay = probe labelling, KiNativ ADP probe; test system = mouse brain lysate; conditions = 1 µM, LYS2 site DIkPENLLLDER; result = -14.7%

Series 4
Host: human
Sample: microsomes or S9
Concentration: 2 µM
Time: 0.5 h
Quantity: remaining compound
Structure (SMILES) = O=C(Cn1cnc2c(nnn2-c2cccc(Cl)c2)c1=O)N1CCCc2ccccc21; result = 27.2%
Structure (SMILES) = O=C(NCc1ccc(F)cc1)c1nc2c(cnn2-c2ccc(F)cc2)c(=O)[nH]1; result = 91.4%
Structure (SMILES) = Cc1cc2cc(CCNC(=O)CC(C)(C)C)c(=O)[nH]c2cc1C; result = 87.1%
Structure (SMILES) = CC(C)(C)OC(=O)NCCC(=O)Nc1nc2cc(F)ccc2s1; result = > 99%
Structure (SMILES) = CCOC(=O)C1=C(C)N=C2CC(C)(C)CC(O)=C2C1C (centres unmarked); result = 70.3%
Structure (SMILES) = Cc1ccc(-c2cc(NC(=O)c3oc4ccc(F)cc4c3C)on2)cc1; result = 60.3%
Structure (SMILES) = CCc1cc2c3c([nH]c2cc1S(=O)(=O)Nc1ccc2c(c1)OCCO2)CC(C)(C)CC3=O; result = 10.9%
Structure (SMILES) = CCCC1(C)NC(=O)N(CC(=O)N(CC(C)C)CC(C)C)C1=O (centres unmarked); result = 1.69%
Structure (SMILES) = CCN(CCCNC(=O)CN1C(=O)c2cccnc2Oc2ccc(C)cc21)c1cccc(C)c1; result = 0.0233%
Structure (SMILES) = Cc1ccc(/C(Br)=C/CN(C)C)cc1; result = 12.1%
Structure (SMILES) = CCN(CC)C(=O)CN(C)Cc1nc(-c2nc[nH]n2)no1; result = > 100%

Excerpt of the above (series 2):
SMILES = CCOc1cc(N2C3COCC2CN(C(=O)[C@H]2C[C@H](O)CN2c2ccc(Cl)cc2)C3)ccc1Cl; result = -16%
SMILES = Cc1cc(-n2nc(Cc3cc(F)cc(C(F)(F)F)c3)nc2C)ccc1C(N)=O; result = 10.5%
SMILES = CSc1cccnc1N1CCN(Cc2nc3ccccc3[nH]2)CC1; result = 20.9%
SMILES = C[C@@]1(Cc2ccc(C#N)cc2)C(=O)N(c2cc(Cl)cc(Cl)c2)c2ncc(C(=O)NC3(c4nc(C5CCC5)no4)CC3)n21; result = 31.5%
